Results collected from several papers.
Every numbered part comes from another study and shows a few of its results, in no order. Positions count from the first letter of the parent shown.

Sample 1 — target: CCNB3, cyclin fold, Cln2 fusion (human); technique: yeast growth competition, sequencing; sample: yeast; notes: weak parent motif; baseline: not given; reading: higher = stronger binding
Starting sequence: CDC6 docking peptide (human); TLKGRRLVFDNQL
Substitution | normalised enrichment score
TLKGRSLVFDNQL [R6S] | -0.224
TLKGRRLDFDNQL [V8D] | 0.374
TLKGRNLVFDNQL [R6N] | 0.213
TLKGRILVFDNQL [R6I] | 0.55
WLKGRRLVFDNQL [T1W] | 0.717
TLKGRRLVFSNQL [D10S] | 0.523
TLKGRRLVFKNQL [D10K] | -0.17
RLKGRRLVFDNQL [T1R] | -0.176
TLKKRRLVFDNQL [G4K] | -0.273

Sample 2 — technique: DHFR PCA, deep sequencing; sample: yeast; added: (+)-ABA 0.11 µM; baseline: wild-type fitted maximum; reading: higher = stronger binding
Target: ABI1, truncated, D143A, DHFR fusion (Arabidopsis thaliana)
Notes: methotrexate growth selection, single substitutions
Starting sequence: PYL1, truncated, DHFR fusion (Arabidopsis thaliana); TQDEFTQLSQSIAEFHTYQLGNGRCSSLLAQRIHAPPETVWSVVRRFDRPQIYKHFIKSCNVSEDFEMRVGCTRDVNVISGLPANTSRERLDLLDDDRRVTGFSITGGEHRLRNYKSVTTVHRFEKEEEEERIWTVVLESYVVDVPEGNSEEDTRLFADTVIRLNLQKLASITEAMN; partner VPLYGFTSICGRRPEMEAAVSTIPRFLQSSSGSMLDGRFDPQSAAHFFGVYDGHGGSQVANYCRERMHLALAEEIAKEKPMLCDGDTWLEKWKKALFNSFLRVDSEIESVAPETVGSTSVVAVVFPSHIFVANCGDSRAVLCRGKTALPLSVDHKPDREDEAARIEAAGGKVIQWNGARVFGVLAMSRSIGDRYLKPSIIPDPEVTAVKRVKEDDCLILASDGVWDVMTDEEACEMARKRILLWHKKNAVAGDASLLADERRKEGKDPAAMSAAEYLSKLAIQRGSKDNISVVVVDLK
Substitution | relative binding score [%]
T39K | 14.8
T120D | -5.24
S42L | -4.94
Q7E | 39.5
T106D | -1.88
R74S | 0.867
R88S | 11.4
F124C | 25

Sample 3 — target: CREM, bZIP domain (human); technique: DHFR protein complementation; sample: yeast; baseline: wild-type JUN-FOS pair; reading: higher = stronger binding
Notes: single substitutions, most at no-binding floor
Starting sequence: JUN, bZIP domain (human); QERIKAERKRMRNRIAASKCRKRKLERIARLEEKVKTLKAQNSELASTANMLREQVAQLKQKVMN; partner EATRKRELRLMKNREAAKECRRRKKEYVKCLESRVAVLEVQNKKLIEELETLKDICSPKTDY
Substitution | binding fitness
L45D | -1.68 natural log
A57V | -1.43 natural log
V56Q | -1.49 natural log
T48F | -1.44 natural log
R53A | -1.59 natural log
A29D | -1.68 natural log
K34S | -1.49 natural log
Q55L | -1.56 natural log
L31S | -1.56 natural log

Single results of other studies
Molecule | target | test | system | setting | how to read | measurement | result
PhoQ, residues 284 288 289 292 302 303 NLGVHL | PhoP, residues 12 14 15 18 19 DLLYY (Escherichia coli, UniProt P23836) | Sort-seq, item: YFP reporter | E. coli | PhoQ-PhoP variant library, added: 10 µM Mg2+ | baseline: high Mg2+ state, higher = stronger signaling | fold induction | 12.1

For quick reference, copied from above (sample 2):
Substitution | relative binding score [%]
T120D | -5.24
S42L | -4.94
